# Results of several laboratories.
# Parts stem from different laboratories: compare values within a part only. “And” joins repeats or separate records; there may be more than shown.
# UniProt P15056, sequence (whole entry, unmodified, looked up): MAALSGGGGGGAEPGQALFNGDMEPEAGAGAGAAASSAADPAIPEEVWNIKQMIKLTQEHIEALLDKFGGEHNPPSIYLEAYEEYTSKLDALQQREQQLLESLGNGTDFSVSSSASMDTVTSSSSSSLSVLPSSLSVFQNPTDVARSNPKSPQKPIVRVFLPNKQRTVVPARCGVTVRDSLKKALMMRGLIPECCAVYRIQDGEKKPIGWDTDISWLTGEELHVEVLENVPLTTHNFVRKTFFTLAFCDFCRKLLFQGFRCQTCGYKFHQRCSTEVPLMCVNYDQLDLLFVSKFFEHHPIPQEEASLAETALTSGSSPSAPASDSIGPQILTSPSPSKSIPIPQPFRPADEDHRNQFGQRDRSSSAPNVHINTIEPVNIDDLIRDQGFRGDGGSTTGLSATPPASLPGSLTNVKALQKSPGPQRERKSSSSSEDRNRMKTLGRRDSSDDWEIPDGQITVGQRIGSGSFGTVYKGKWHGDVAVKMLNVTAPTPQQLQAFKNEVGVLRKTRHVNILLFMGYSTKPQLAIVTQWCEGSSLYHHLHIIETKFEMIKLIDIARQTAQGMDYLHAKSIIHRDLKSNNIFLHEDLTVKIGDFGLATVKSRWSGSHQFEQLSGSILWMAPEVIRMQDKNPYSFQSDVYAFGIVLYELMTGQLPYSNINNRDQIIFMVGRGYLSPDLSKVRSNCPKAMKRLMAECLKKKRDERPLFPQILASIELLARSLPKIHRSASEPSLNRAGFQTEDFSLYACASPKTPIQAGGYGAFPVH
# UniProt P07949, sequence (whole entry, looked up): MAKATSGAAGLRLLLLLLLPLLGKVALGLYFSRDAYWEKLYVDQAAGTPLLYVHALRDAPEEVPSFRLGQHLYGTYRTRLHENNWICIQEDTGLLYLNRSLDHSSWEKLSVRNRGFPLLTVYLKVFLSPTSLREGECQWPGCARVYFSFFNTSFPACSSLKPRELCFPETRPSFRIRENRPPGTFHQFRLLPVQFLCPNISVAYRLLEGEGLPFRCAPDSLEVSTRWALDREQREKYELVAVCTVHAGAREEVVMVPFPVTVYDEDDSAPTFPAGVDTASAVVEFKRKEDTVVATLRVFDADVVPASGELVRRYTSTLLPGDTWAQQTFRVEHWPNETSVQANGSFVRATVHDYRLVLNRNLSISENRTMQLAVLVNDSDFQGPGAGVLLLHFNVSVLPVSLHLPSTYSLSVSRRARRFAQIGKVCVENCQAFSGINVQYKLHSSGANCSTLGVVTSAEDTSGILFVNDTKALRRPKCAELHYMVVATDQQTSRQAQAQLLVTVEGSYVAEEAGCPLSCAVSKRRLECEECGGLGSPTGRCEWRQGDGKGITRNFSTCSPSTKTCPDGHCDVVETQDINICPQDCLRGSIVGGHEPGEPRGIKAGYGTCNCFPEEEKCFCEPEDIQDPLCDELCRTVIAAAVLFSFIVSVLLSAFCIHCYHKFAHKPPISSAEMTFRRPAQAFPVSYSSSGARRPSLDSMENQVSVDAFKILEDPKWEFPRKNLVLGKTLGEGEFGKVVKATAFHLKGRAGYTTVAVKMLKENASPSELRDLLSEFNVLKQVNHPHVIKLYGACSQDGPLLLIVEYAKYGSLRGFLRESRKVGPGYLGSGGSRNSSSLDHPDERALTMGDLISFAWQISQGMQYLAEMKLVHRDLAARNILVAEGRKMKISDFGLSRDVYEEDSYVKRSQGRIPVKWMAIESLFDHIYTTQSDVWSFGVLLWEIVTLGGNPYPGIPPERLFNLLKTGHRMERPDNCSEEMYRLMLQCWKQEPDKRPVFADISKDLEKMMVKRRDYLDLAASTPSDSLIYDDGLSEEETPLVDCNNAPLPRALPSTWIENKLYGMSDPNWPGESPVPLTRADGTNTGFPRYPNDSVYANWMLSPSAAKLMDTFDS
# UniProt P36896, sequence (whole entry, looked up): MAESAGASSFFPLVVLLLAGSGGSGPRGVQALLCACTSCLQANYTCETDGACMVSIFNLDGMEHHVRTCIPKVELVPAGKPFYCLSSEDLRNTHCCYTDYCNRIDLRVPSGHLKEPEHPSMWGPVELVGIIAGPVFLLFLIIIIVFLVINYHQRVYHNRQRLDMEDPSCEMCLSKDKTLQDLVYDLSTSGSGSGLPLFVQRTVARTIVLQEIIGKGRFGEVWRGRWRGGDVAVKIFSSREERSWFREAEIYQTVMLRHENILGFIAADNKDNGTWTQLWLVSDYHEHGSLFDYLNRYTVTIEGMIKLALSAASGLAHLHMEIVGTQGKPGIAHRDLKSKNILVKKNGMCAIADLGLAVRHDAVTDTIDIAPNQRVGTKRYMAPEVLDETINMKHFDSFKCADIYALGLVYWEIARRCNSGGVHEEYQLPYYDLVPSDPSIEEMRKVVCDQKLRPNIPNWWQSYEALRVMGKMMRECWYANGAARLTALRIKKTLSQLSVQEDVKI
# UniProt Q02750, sequence (whole entry, looked up): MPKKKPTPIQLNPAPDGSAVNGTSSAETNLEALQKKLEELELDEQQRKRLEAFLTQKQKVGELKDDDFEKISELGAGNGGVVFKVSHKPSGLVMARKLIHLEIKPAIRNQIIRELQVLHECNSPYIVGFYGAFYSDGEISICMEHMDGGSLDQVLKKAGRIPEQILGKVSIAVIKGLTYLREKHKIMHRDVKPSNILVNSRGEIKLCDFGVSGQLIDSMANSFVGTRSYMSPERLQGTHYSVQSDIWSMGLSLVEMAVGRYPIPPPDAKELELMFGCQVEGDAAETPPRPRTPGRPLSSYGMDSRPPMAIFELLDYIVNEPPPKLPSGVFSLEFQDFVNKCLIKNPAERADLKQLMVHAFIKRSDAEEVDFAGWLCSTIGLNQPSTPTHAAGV

# Study 1
# Target: Calcium/calmodulin-dependent protein kinase type II subunit alpha (CAMK2A, Homo sapiens, UniProt Q9UQM7)
# UniProt Q9UQM7, sequence (whole entry, looked up): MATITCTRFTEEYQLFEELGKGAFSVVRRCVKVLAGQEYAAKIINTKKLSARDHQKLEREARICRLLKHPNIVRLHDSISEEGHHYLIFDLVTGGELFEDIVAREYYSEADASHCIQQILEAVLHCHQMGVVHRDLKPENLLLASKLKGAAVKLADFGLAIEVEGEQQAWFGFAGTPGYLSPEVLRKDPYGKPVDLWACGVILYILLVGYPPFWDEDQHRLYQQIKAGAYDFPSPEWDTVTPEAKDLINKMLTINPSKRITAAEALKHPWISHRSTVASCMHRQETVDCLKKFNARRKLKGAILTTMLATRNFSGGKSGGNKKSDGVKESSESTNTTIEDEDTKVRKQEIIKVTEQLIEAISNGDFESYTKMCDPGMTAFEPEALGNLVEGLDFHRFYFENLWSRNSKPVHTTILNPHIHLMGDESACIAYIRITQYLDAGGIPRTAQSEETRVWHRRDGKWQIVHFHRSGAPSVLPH
# Effect on: enzyme activity
# Mode: inhibitor
# Tested at: 10 µM
Compound,inhibition [%]
Nc1ncn([C@@H]2O[C@H](CO)[C@@H](O)[C@H]2O)c(=O)n1,-10
CC(=O)Nc1ccc(S(=O)(=O)O)c2cc(S(=O)(=O)O)c(N=Nc3ccccc3)c(O)c12,-56
Nc1ccc(S(=O)(=O)NC(=O)c2ccccc2)cc1,-5
NC(Cc1c[nH]c2ccccc12)C(=O)O (racemic),27
CCCN1C[C@H](CSC)C[C@@H]2c3cccc4[nH]cc(c34)C[C@H]21,-3
O=c1c(O)c(-c2ccc(O)c(O)c2)oc2cc(O[C@@H]3O[C@H](CO)[C@@H](O)[C@H](O)[C@H]3O)cc(O)c12,-21
NC(=O)CCC(N)C(=O)O (racemic),31
COC(=O)c1c2c(c3ccccc3c1O)OC(C)(C)C=C2,11
CCC(O)C(=O)O (centres unmarked),28
COc1cc(O)c(C(=O)/C=C/c2ccccc2)c(O)c1,19
CC(=O)/C=C/C1=C(C)CCCC1(C)C,-25

# Study 2
# SMILES: C=CCc1ccc(O)c(-c2cc(CC=C)ccc2O)c1
# Target: Anoctamin-1 (ANO1, Homo sapiens, UniProt Q5XXA6, del476-501)
# UniProt Q5XXA6, sequence (whole entry, unmodified, looked up): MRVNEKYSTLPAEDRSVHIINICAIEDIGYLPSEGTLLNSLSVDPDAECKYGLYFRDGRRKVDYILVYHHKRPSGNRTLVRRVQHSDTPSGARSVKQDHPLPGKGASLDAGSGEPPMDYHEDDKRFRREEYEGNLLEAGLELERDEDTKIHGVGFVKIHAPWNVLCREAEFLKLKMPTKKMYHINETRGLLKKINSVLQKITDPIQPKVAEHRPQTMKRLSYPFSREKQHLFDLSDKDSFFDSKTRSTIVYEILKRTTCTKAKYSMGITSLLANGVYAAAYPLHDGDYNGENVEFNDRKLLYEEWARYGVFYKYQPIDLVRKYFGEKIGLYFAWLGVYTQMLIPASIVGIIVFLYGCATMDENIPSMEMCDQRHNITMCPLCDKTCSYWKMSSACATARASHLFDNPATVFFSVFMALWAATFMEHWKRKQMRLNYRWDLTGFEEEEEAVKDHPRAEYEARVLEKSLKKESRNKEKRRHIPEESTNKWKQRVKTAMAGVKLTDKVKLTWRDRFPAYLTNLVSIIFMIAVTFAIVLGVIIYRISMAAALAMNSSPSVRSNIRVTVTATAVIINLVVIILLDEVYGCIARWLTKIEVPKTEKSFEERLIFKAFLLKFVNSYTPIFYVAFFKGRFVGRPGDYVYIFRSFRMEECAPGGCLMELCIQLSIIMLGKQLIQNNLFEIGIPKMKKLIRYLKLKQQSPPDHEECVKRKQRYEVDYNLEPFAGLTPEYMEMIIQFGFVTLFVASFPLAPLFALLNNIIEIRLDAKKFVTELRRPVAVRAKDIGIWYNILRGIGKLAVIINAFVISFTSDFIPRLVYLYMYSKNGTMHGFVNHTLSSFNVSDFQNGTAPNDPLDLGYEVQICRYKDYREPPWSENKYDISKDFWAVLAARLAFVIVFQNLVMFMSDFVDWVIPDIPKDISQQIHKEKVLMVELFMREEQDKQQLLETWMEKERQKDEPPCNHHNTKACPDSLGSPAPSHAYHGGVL
# Effect on: chloride current
# Method: whole-cell patch clamp
tested at,notes,added,normalised current
1 µM,"40 mV, 300 nM free Ca2+",,0.194
30 µM,"100 mV, 300 nM free Ca2+",honokiol and magnolol 3 µM,0.305
10 µM,"-100 mV, 300 nM free Ca2+",,-0.0751
3 µM,"-40 mV, 300 nM free Ca2+",,-0.0725
3 µM,"0 mV, 300 nM free Ca2+",,-0.000379
10 µM,"-20 mV, 300 nM free Ca2+",honokiol and magnolol 3 µM,-0.0315
100 µM,"-60 mV, 300 nM free Ca2+",,-0.0215
1 µM,"60 mV, 300 nM free Ca2+",,0.367
30 µM,"60 mV, 300 nM free Ca2+",honokiol and magnolol 3 µM,0.098
30 µM,"20 mV, 300 nM free Ca2+",honokiol and magnolol 3 µM,0.0172
10 µM,"80 mV, 300 nM free Ca2+",honokiol and magnolol 3 µM,0.382
100 µM,"20 mV, 300 nM free Ca2+",,0.0147
10 µM,"40 mV, 300 nM free Ca2+",honokiol and magnolol 3 µM,0.128
100 µM,"60 mV, 300 nM free Ca2+",honokiol and magnolol 3 µM,0.0438
3 µM,"-100 mV, 300 nM free Ca2+",,-0.0991

# Study 3
# SMILES: COc1cc(/C=C(\C#N)C(=O)c2ccc(O)c(O)c2)cc(I)c1O
# Mode: inhibitor
# Tested at: 5 µM
target,assay,test system,conditions,scale,log2 fold change
kinase–CDC37 interaction,kinase–CDC37 binding,human cells,oncogenic ETV6-SYK fusion,relative to: vehicle,0.505
"Mitogen-activated protein kinase kinase kinase 12 (MAP3K12, Homo sapiens, UniProt Q12852)",cell-based kinome screen,human cells,,relative to: untreated control,0.397
"Protein kinase C beta type (PRKCB, Homo sapiens, UniProt P05771)",cell-based kinome screen,human cells,,relative to: untreated control,0.059 log2
"Bone morphogenetic protein receptor type-1A (BMPR1A, Homo sapiens, UniProt P36894)",cell-based kinome profiling,human cells,,relative to: vehicle control,-0.079
"Serine/threonine-protein kinase B-raf (BRAF, Homo sapiens, UniProt P15056, G466V)",cell-based kinome profiling,human cells,,relative to: vehicle control,-0.007
"Protein kinase C theta type (PRKCQ, Homo sapiens, UniProt Q04759)",cell-based kinome screen,human cells,,relative to: untreated control,-0.087
"Serine/threonine-protein kinase B-raf (BRAF, Homo sapiens, UniProt P15056, G466E)",cell-based kinome profiling,human cells,,relative to: vehicle control,-0.119
"Proto-oncogene tyrosine-protein kinase receptor Ret (RET, Homo sapiens, UniProt P07949)",,human cells,cell-based kinome screen,relative to: vehicle,0.249 and 0.503
"Serine/threonine-protein kinase B-raf (BRAF, Homo sapiens, UniProt P15056, G596R)",cell-based kinome profiling,human cells,,relative to: vehicle control,-0.108

# Study 4
# SMILES: Cn1nc(C(F)(F)F)cc1-c1cnc(N2CCc3cc(S(=O)(=O)Nc4c(F)cc(Cl)cc4F)cc(N4CCCC4=O)c32)nc1
# Tested at: 1 µM
target,effect on,method,remaining binding [%]
"Non-receptor tyrosine-protein kinase TYK2, JH1 (TYK2, Homo sapiens, UniProt P29597)",cell-free assay,competition with immobilised ligand,78
"Phosphatidylinositol 4,5-bisphosphate 3-kinase catalytic subunit alpha isoform (PIK3CA, Homo sapiens, UniProt P42336, E542K)",cell-free assay,competition with immobilised ligand,85
"Glycogen synthase kinase-3 beta (GSK3B, Homo sapiens, UniProt P49841)",cell-free assay,competition with immobilised ligand,100
"Receptor-type tyrosine-protein kinase FLT3, autoinhibited (FLT3, Homo sapiens, UniProt P36888)",cell-free assay,competition with immobilised ligand,100
"Activin receptor type-1B (ACVR1B, Homo sapiens, UniProt P36896)",cell-free assay,competition with immobilised ligand,96
"Dual specificity mitogen-activated protein kinase kinase 1 (MAP2K1, Homo sapiens, UniProt Q02750)",cell-free assay,competition with immobilised ligand,95
"AP2-associated protein kinase 1 (AAK1, Homo sapiens, UniProt Q2M2I8)",binding,,100
"Dual specificity tyrosine-phosphorylation-regulated kinase 1B (DYRK1B, Homo sapiens, UniProt Q9Y463)",cell-free assay,competition with immobilised ligand,100
"Mitogen-activated protein kinase kinase kinase 6 (MAP3K6, Homo sapiens, UniProt O95382)",cell-free assay,competition with immobilised ligand,67
"Serine/threonine-protein kinase PLK1 (PLK1, Homo sapiens, UniProt P53350)",cell-free assay,competition with immobilised ligand,93
"Receptor-type tyrosine-protein kinase FLT3 (FLT3, Homo sapiens, UniProt P36888, D835H)",cell-free assay,competition with immobilised ligand,100
"Casein kinase I isoform delta (CSNK1D, Homo sapiens, UniProt P48730)",cell-free assay,competition with immobilised ligand,94
"Mitogen-activated protein kinase kinase kinase kinase 2 (MAP4K2, Homo sapiens, UniProt Q12851)",cell-free assay,competition with immobilised ligand,95
"Serine/threonine-protein kinase SBK1 (SBK1, Homo sapiens, UniProt Q52WX2)",cell-free assay,competition with immobilised ligand,92
"Serine/threonine-protein kinase MRCK beta (CDC42BPB, Homo sapiens, UniProt Q9Y5S2)",cell-free assay,competition with immobilised ligand,94

# Some of these lines once more (study 1):
Compound,inhibition [%]
Nc1ccc(S(=O)(=O)NC(=O)c2ccccc2)cc1,-5
CC(=O)/C=C/C1=C(C)CCCC1(C)C,-25
NC(=O)CCC(N)C(=O)O (racemic),31
COC(=O)c1c2c(c3ccccc3c1O)OC(C)(C)C=C2,11
Nc1ncn([C@@H]2O[C@H](CO)[C@@H](O)[C@H]2O)c(=O)n1,-10
CC(=O)Nc1ccc(S(=O)(=O)O)c2cc(S(=O)(=O)O)c(N=Nc3ccccc3)c(O)c12,-56
NC(Cc1c[nH]c2ccccc12)C(=O)O (racemic),27
CCC(O)C(=O)O (centres unmarked),28
